Assay results of several laboratories.
Numbered parts are unrelated; each lists some results of a single study. Substitutions count along the parent as printed.

Block 1
Target: RING finger protein unkempt homolog, zinc fingers 1-6, GST-SBP tag (UNK, Homo sapiens, UniProt Q9C0B0, residues 30-357)
Method: RNA Bind-n-Seq
Form: RNA
Sample: in vitro
Tested at: not given
Setting: RNA with constant flanks, human and mouse sites, ends assumed
Relative to: input RNA pool
Direction: higher = stronger binding
Target sequence (chain): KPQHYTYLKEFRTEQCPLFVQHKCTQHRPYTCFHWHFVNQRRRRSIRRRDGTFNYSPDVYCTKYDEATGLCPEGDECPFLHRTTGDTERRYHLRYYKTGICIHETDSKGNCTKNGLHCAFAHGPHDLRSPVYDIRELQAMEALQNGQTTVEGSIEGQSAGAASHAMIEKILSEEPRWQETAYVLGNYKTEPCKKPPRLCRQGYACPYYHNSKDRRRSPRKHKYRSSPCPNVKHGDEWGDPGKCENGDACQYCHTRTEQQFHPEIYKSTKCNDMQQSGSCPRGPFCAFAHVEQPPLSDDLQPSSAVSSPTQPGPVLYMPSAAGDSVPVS
| Sequence | bound/input enrichment [ratio] |
| --- | --- |
| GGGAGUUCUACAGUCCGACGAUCAAGAAUAUUCGAUUUCCACUGAUGACACCACAGGAUCUCAUCAAUUACGUGCAGACAGUAGAUUUCAUGAGAACAGACAAUACCUGCGUGAAUUUGCUUUUGGAAGCUAGCAAUUACCAACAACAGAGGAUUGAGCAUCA | 0.295 |
| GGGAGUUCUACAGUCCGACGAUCGUCCCAAACAUCUCUGUCCACCUGCGACACGAGCCCCCUGCUCUAAUGAAUGAGAUGUACUGUUUGGUUGUCACUGUUCAGUCCCACGAGAAGUCCCCAAUCAGGGAUGUGAAGCUCACUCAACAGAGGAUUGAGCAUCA | 0.084 |
| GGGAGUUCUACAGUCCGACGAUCCAUAAGAGAUGUUCUCGUAGCUCUGCGUUGUGUGAAAUGUCCAUCUUAGUUUUGUUAAAAAAAAAAAAAAAAAAAGGAAACAGCCUCACUUUUUUGUGCUCCCUCAGAAUUGCUUGCUAUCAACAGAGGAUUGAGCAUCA | 2.81 |
| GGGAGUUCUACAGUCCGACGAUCUUUGGUUUAGUUUGGUUUUAUUUUCUUUAACUGAAAUGCAUGCACAAAAGGAGCUCAGGAGACAUUAGACCUGGUGAAAGGUGUGAGCUGACGUGGAUCACUUGAGGCUGUCAUUGCUGUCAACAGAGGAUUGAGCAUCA | 1.09 |
| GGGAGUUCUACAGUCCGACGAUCGCCUGUGAGAAUUACAAGAAGAUCAAGUCCCCCAUCAAAAUGGCGGAGAAGGCAAAGCAAAUUUAUGAAGAAUUCAUCCAGACAGAGGCCCCUAAAGAGGUGAACAUUGACCACUUCACUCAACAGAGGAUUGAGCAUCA | 0.283 |
| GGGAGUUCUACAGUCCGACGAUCGCUGUGGAUCUGCUGACUCAGCUUUCUUCAAUACUAAAAACAUAUGGAAGUUCUUUGAAAACACCGUCAAUAGUUUAUAGACAGAGACUUUAUGAACUACUAAUUUUAUUACCUCCUGAGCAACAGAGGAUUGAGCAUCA | 0.46 |

Block 2
Target: Histone acetyltransferase KAT6A, winged helix 2, GST fusion (KAT6A, Homo sapiens, UniProt Q92794, residues 85-181)
Method: protein binding microarray
Form: double-stranded DNA, one strand shown
Sample: in vitro
Tested at: not given
Setting: 8-mer, flanks averaged, mean of 2 arrays, mostly near background
Relative to: not given
Direction: higher = stronger binding
Target sequence (chain): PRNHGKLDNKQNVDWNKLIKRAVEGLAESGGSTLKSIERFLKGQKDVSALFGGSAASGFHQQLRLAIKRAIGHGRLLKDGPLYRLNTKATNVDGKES
| Sequence | E-score |
| --- | --- |
| GATTTAGC | 0.0338 |
| AGTGCCTA | 0.0533 |
| AAGTCGGG | -0.0473 |
| ATGACTTA | -0.0774 |
| GTGTGTAA | -0.114 |
| AAGCCTGC | -0.0412 |
| AAAAACCG | -0.0912 |
| ACAGTAGT | -0.112 |
| ACCAAGTG | -0.153 |
| CCGTATTC | 0.0825 |

Block 3
Target: CCNE1, cyclin fold, Cln2 fusion (human)
Method: yeast growth competition, sequencing
Sample: yeast
Setting: strong parent motif
Relative to: not given
Direction: higher = stronger binding
Starting sequence: INSM1 docking peptide (human); PKAIRKLHFEDEV
| Change | normalised enrichment score |
| --- | --- |
| PKAIRKLHFEDAV [E12A] | 4.25 |
| PWAIRKLHFEDEV [K2W] | 2.97 |
| PKAARKLHFEDEV [I4A] | 3.67 |
| PKRIRKLHFEDEV [A3R] | 0.212 |

Single results of other studies
| Substance | target | test | test system | conditions | how to read | quantity | result |
| --- | --- | --- | --- | --- | --- | --- | --- |
| PhoQ, residues 284 288 289 292 302 303 TTCLQL | PhoP, residues 12 14 15 18 19 VQALL (Escherichia coli, UniProt P23836) | Sort-seq, refers to: YFP reporter | E. coli | PhoQ-PhoP variant library, with: 10 µM Mg2+ | relative to: high Mg2+ state, higher = stronger signaling | fold induction | 2.58 |

A few entries again (block 2):
| Sequence | E-score |
| --- | --- |
| ACAGTAGT | -0.112 |
